Measured values of several laboratories.
Lines come from different studies, so protocols differ. ± marks the error that the study gave.
ache: Acetylcholinesterase (ache, Electrophorus electricus, UniProt O42275)
UniProt O42275, sequence (whole entry, looked up): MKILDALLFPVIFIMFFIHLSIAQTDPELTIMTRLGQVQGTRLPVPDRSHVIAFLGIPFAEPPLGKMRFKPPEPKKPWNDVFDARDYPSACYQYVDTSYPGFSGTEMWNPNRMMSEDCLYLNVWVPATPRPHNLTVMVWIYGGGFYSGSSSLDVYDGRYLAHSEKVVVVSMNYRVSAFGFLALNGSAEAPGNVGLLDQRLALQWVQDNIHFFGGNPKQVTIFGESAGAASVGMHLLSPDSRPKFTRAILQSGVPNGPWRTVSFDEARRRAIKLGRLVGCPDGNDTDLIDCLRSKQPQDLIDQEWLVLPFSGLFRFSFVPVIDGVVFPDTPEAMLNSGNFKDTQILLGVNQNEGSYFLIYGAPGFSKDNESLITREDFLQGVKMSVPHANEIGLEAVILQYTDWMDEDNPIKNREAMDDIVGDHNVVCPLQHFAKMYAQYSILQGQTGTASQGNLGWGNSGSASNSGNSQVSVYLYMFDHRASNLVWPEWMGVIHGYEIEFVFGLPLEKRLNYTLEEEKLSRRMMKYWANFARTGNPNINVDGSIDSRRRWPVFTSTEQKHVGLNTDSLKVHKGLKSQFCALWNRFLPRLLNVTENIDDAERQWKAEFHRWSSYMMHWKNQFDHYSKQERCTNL
BACE1: Beta-secretase 1 (BACE1, Homo sapiens, UniProt P56817)
UniProt P56817, sequence (whole entry, looked up): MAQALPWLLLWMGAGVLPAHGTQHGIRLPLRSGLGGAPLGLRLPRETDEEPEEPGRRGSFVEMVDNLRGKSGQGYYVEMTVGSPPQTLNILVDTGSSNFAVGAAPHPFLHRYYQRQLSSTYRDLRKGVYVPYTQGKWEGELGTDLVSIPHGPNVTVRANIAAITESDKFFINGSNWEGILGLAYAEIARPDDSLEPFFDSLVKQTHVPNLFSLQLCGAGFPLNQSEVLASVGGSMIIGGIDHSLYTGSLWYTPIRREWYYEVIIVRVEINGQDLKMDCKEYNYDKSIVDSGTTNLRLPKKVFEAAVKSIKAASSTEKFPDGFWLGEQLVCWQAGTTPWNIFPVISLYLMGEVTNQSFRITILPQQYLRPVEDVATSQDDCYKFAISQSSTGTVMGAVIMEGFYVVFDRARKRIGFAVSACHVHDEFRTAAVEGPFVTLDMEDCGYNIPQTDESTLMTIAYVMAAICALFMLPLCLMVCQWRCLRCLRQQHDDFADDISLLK
Oprk1: Kappa-type opioid receptor (Oprk1, Rattus norvegicus, UniProt P34975)
UniProt P34975, sequence (whole entry, looked up): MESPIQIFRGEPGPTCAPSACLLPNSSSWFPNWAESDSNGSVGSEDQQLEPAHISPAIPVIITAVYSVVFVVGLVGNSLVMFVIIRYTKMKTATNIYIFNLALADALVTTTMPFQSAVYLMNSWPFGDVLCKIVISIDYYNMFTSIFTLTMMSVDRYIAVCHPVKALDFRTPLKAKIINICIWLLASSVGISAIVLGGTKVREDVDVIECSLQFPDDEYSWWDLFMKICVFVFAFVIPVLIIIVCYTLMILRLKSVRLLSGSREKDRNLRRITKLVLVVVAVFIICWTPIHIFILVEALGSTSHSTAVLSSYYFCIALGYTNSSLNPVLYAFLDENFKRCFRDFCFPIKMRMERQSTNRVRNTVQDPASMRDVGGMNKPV
UniProt P24666, sequence (whole entry, looked up): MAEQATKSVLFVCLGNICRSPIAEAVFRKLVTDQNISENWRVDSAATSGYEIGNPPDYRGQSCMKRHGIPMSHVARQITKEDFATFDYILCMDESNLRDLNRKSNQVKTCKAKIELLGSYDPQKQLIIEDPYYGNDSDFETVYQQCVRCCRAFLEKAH
UniProt Q04828, sequence (whole entry, looked up): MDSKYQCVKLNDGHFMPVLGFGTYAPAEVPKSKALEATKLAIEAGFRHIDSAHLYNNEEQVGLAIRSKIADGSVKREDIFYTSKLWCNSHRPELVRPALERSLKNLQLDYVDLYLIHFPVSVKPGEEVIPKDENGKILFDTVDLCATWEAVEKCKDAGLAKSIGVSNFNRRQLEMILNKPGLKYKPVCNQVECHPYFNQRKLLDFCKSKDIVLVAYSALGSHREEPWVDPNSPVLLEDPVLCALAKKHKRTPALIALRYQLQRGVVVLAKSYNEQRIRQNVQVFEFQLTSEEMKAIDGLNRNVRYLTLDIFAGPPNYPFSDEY
UniProt P37353, sequence (whole entry, looked up): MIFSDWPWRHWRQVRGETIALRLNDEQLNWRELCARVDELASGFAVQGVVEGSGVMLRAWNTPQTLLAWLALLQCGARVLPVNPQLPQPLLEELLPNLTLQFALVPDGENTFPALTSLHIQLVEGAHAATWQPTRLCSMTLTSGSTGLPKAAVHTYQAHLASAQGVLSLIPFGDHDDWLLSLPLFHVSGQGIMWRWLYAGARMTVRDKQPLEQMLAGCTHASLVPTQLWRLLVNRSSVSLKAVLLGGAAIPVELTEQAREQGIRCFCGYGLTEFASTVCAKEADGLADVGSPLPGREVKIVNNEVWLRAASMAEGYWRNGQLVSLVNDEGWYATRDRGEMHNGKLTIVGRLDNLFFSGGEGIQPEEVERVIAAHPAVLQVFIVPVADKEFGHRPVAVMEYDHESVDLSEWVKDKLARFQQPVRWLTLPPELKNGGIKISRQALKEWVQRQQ
UniProt P21564, sequence (whole entry, unmodified, looked up): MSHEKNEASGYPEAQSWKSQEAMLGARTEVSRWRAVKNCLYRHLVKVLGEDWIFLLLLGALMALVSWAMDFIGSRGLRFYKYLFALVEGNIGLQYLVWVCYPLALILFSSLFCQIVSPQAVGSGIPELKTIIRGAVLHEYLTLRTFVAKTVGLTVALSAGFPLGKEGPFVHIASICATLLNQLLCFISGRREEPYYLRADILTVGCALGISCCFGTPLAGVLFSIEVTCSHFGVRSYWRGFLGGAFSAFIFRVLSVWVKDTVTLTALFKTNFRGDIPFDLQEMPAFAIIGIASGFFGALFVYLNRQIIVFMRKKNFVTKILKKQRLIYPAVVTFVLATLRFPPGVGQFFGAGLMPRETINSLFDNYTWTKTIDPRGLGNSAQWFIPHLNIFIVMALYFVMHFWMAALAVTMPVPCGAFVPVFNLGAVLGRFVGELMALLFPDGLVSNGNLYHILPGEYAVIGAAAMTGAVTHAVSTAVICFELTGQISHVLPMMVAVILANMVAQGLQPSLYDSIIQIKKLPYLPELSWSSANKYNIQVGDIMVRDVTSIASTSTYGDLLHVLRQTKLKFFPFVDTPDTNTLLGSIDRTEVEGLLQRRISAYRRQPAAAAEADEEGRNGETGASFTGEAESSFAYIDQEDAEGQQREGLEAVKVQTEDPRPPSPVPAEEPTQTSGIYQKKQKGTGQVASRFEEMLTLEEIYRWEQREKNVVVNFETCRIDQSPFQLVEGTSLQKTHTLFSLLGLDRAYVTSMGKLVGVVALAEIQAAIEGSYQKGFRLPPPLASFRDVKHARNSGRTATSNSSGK
UniProt P00811, sequence (whole entry, looked up): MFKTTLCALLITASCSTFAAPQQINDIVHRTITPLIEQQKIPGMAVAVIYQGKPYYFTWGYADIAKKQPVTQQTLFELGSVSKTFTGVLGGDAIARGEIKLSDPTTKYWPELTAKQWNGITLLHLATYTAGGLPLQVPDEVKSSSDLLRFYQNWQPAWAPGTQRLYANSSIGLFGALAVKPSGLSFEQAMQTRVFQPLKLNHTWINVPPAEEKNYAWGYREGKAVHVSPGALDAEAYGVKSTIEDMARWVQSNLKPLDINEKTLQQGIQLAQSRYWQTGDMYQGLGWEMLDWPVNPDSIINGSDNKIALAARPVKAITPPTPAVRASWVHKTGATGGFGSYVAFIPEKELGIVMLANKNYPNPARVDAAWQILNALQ
UniProt O66465, sequence (whole entry, looked up): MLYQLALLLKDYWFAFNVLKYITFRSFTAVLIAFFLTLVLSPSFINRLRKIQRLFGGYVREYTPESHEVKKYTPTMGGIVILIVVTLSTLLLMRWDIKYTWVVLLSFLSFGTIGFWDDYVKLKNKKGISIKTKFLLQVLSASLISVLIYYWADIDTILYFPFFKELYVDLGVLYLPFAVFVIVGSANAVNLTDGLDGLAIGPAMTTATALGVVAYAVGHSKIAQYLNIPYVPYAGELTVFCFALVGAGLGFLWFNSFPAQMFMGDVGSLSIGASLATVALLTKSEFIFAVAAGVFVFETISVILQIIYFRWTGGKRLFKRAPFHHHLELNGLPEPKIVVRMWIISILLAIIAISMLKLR
UniProt P55210, sequence (whole entry, looked up): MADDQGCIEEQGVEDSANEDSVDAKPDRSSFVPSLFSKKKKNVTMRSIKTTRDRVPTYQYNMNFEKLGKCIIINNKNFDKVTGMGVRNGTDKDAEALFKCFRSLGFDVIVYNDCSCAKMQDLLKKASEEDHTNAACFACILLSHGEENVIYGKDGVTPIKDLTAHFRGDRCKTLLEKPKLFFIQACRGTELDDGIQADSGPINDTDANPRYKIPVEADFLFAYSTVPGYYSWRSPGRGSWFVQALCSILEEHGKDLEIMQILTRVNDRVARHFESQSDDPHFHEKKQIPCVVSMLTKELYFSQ
UniProt P00691, sequence (whole entry, unmodified, looked up): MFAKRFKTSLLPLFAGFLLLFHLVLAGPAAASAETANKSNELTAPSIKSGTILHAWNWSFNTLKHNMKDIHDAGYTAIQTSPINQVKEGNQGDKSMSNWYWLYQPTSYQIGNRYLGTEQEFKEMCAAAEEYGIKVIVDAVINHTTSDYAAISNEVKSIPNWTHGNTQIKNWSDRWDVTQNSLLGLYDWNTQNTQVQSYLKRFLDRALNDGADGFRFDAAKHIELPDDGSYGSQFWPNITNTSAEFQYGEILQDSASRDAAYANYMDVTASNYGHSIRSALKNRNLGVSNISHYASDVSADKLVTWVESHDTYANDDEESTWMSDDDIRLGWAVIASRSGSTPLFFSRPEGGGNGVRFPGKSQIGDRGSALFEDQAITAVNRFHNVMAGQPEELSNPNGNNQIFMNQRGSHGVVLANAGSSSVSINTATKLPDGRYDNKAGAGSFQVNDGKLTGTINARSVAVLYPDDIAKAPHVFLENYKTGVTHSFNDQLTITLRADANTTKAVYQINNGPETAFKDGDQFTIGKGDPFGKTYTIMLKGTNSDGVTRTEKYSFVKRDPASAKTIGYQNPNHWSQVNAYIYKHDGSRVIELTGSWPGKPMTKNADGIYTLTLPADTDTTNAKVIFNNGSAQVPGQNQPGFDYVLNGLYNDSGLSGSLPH

Structure (SMILES) | target | assay | system | conditions | scale | quantity | value
Nc1ncnc2c1ncn2C1OC(COc2ccc(CCC(=O)c3ccccc3C(=O)O)cc2)C(O)C1O (stereo not drawn) | 2-succinylbenzoate--CoA ligase (menE, Escherichia coli, UniProt P37353) | isothermal titration calorimetry |  | concentration not given |  | binding | no binding
CCN(Cc1ccccc1)C(=O)CCc1nc(CN2CCN(C(=O)Cc3ccc(OC)c(OC)c3)CC2)no1 | Sodium channel protein type 9 subunit alpha (SCN9A, Homo sapiens, UniProt Q15858) | whole-cell patch clamp | HEK stable | 1 µM |  | V1/2 of activation | -40.8 ± 2.01 mV
CCC(C)Sc1nc2c([nH]1)c(=S)n(C)c(=O)n2C (stereo not drawn) | Estrogen receptor (ESR1, Homo sapiens, UniProt P03372) | reporter gene, ERE luciferase | T47D-KBluc | 10 µM, 24 h, together with: estradiol 5 nM | relative to: maximal luciferase activity | reporter activity | 85%
N[C@@H](CCC(=O)N[C@@H](CS[Se]Cc1ccc(C(=O)Nc2cc(C(F)(F)F)c(Br)c(C(F)(F)F)c2)cc1)C(=O)NCC(=O)O)C(=O)O | Low molecular weight phosphotyrosine protein phosphatase (ACP1, Homo sapiens, UniProt P24666) | enzyme activity |  | together with: pNPP, GSH 1 mM | relative to: IC50 ACP1 over mPTPA | selectivity ratio | 81
CC(C)P(=[Se])(NP(=[Se])(C(C)C)C(C)C)C(C)C | Alpha-amylase (Bacillus subtilis, UniProt P00691) | fluorescence quenching |  | concentration not given, pH 6.8, 304 K |  | ΔG of binding | -4.12 kcal/mol
C[C@@H](NC(=O)[C@H](Cc1ccccc1)NC(=O)[C@@H](CCCNC(=N)N)NC(=O)[C@H](CCCN)NC(=O)[C@@H]1CNC(=O)c2cc3cc(c2)C(=O)N[C@H](Cc2ccc4ccccc4c2)C(=O)N[C@@H](CO)C(=O)N[C@@H](CC(N)=O)C(=O)N[C@H](Cc2ccc4ccccc4c2)C(=O)N[C@@H](c2ccccc2)C(=O)N[C@@H](CCCCNC3=O)C(=O)N[C@H](Cc2ccccc2)C(=O)N[C@@H](CCC(N)=O)C(=O)N[C@H](CCCNC(=N)N)C(=O)N[C@@H](CCCNC(=N)N)C(=O)N1)C(=O)NCCOCCOCC(=O)NCCOCCOCC(=O)N[C@@H](CCCCNC(=O)c1ccc2c(c1)C(=O)OC21c2ccc(O)cc2Oc2cc(O)ccc21)C(N)=O | E3 ubiquitin-protein ligase Mdm2 (MDM2, Homo sapiens, UniProt Q00987) | fluorescence polarization |  | concentration not given |  | binding | no binding
Cc1cccc(Nc2c3c(nc4ccccc24)CCCC3)n1 | ache | enzyme activity, inhibitor, Ellman |  | 50 µM |  | inhibition | 41.3%
COc1ccc2cc1Oc1ccc(cc1)C[C@H]1c3cc(c(OC)cc3CC[N@+]1(C)Cc1ccc3c(c1)C(=O)c1ccccc1C3=O)Oc1c(OC)c(OC)cc3c1[C@H](C2)[N@@+](C)(Cc1ccc2c(c1)C(=O)c1ccccc1C2=O)CC3 | poly(dG)·poly(dC) 18-bp dsDNA | DNA binding, ethidium bromide displacement | phosphate buffer, 10% DMSO | pH 7.2, 25 °C, dsDNA 10 µM, 10 mM NaCl, together with: ethidium bromide 5 µM |  | Stern-Volmer constant | 15300 M⁻¹
O=C(/C=C/c1ccccc1F)c1cc2ccccc2oc1=O | BACE1 | enzyme activity, inhibitor, fluorescence |  | 10 µM |  | remaining activity | 89.1%
CC(C)CC(NC(=O)C(NC(=O)NC(C(=O)O)C(C)C)C1CCNC(=N)N1)C(=O)NCCCNC(C(=O)O)C(OC1OC(CN)C(O)C1O)C1OC(n2ccc(=O)[nH]c2=O)C(O)C1O (stereo not drawn) | Phospho-N-acetylmuramoyl-pentapeptide-transferase (mraY, Aquifex aeolicus, UniProt O66465) | isothermal titration calorimetry |  | concentration not given, wild type, together with: Mg2+ |  | binding stoichiometry | 0.62 ± 0.02
CCCCCCCCCCCCCCCc1ccc(COP(O)(O)=S)cc1 | Autotaxin (ENPP2, Homo sapiens, UniProt Q13822) |  |  | enzyme substrate complex |  | Ki′ | 4.43 µM
O=C(O)COc1ccc(Cl)cc1 | Chloride channel protein (Torpedo marmorata, UniProt P21564, C212S) | chloride current, inside-out patch clamp |  | 20 mM, step to -140 mV |  | slow deactivation time constant | 35 ms
COC(=O)N(C)[C@@H](Cc1ccccc1)C(=O)N[C@@H](Cc1ccccc1)C(=O)N[C@@H](Cc1c[nH]c2ccccc12)C(=O)N[C@@H](CCCNC(=N)N)C(=O)N[C@@H](CC(C)C)C(=O)N[C@@H](CCCNC(=N)N)C(=O)N[C@@H](CCCNC(=N)N)C(=O)N[C@H](C)C(=O)N[C@@H](CCCNC(=N)N)C(=O)N1CCC[C@H]1C(=O)N[C@@H](CCCCN)C(N)=O | Oprk1 | agonist | CHO cells | 10 µM | relative to: dynorphin A(1-13) amide | adenylyl cyclase activity | 98 ± 13%
CC(C)C[C@H](NC(=O)CNC(=O)[C@@H](NC(=O)[C@H](CO)NC(=O)[C@H](CCCCN)NC(=O)[C@H](CC(C)C)NC(=O)C1(NC(=O)[C@H](CCC(=O)O)NC(=O)[C@H](CC(C)C)NC(=O)[C@@H](N)C(C)C)CC(C)(C)N([O])C(C)(C)C1)C(C)C)C(=O)N[C@@H](Cc1ccccc1)C(=O)O | Rhodopsin, photoactivated (Meta II) (RHO, Bos taurus, UniProt P02699) | binding to R*, time-resolved EPR |  | 250 and 50 µM, pH 6.8, together with: 250 µM rhodopsin, laser flash |  | apparent lifetime | ~6 ms
O=C(O)CN(c1ccccc1)S(=O)(=O)c1ccccc1 | Beta-lactamase (ampC, Escherichia coli K-12, UniProt P00811) |  |  |  |  | ligand efficiency | 0.26
[2H]C([2H])(C)N1CCN(C2=Nc3cc(Cl)ccc3Nc3ccccc32)CC1 | Muscarinic acetylcholine receptor M3 (CHRM3, Homo sapiens, UniProt P20309, A239G/Y149C) | calcium signal, agonist, FLIPR |  |  | relative to: clozapine N-oxide | Emax | 86%
CN(C)CCCSC(=S)N1CCN(C(=O)/C=C/c2coc3ccccc3c2=O)CC1 | Nucleoprotein (N, Tomato spotted wilt virus, UniProt P25999, Y184A) | binding, microscale thermophoresis |  | concentration not given | relative to: wild type over mutant | fold reduction in affinity | ~135
CC(C)(C)OC(=O)CCCNC(=O)CN1CCC(Nc2cccc3c2cc(C#CCNc2ccc(P(C)(C)=O)cc2)n3CC(F)(F)F)CC1 | Cellular tumor antigen p53 (TP53, Homo sapiens, UniProt P04637, Y220C) | thermal stabilisation, nano differential scanning fluorimetry |  |  | relative to: DMSO | ΔTm | 6.33 °C
Cn1ccc(-c2ccc(Cn3cc(C(=O)N[C@H]4CCCC[C@@H]4O)c4c(F)cc(F)cc43)cn2)n1 | Muscarinic acetylcholine receptor M1 (CHRM1, Homo sapiens, UniProt P11229) | calcium mobilization, positive allosteric modulator | CHO | together with: acetylcholine EC20 | relative to: acetylcholine maximum | maximal response | 86 ± 1%
CC[C@H](C)[C@H](NC(=O)[C@H](CCC(N)=O)NC(=O)[C@H](CC(C)C)NC(=O)[C@@H](NC(=O)CNC(=O)[C@H](Cc1ccc(O)cc1)NC(=O)[C@H](CC(=O)O)NC(=O)[C@@H](NC(=O)[C@H](CO)NC(=O)CNC(=O)[C@H](CC(=O)O)NC(=O)[C@@H](NC(=O)[C@H](CC(N)=O)NC(=O)[C@H](CCCNC(=N)N)NC(=O)[C@H](CC(N)=O)NC(=O)[C@@H](NC(=O)[C@H](C)NC(=O)[C@H](CCC(N)=O)NC(=O)[C@@H](NC(=O)[C@H](CC(N)=O)NC(=O)[C@H](Cc1ccccc1)NC(=O)[C@H](CC(N)=O)NC(=O)[C@H](CO)NC(=O)[C@H](CCC(=O)O)NC(=O)[C@H](Cc1ccccc1)NC(=O)[C@H](CCCCN)NC(=O)[C@H](C)NC(=O)[C@H](C)NC(=O)[C@H](CO)NC(=O)[C@@H](NC(=O)[C@H](Cc1c[nH]c2ccccc12)NC(=O)[C@H](CC(N)=O)NC(=O)CNC(=O)[C@H](CC(C)C)NC(=O)[C@H](CO)NC(=O)[C@H](Cc1ccc(O)cc1)NC(=O)CNC(=O)[C@H](CCCNC(=N)N)NC(=O)[C@H](Cc1ccc(O)cc1)NC(=O)[C@H](CC(N)=O)NC(=O)[C@@H](N)CC(=O)O)C(C)C)[C@@H](C)O)[C@@H](C)O)[C@@H](C)O)[C@@H](C)O)[C@@H](C)CC)C(=O)O | Periplasmic serine endoprotease DegP (degP, Escherichia coli, UniProt P0C0V0, C83S/C95S/N322C) | cage assembly rate, FRET |  |  |  | Kapp | 7.6 ± 0.5 µM
COC(=O)C1C(OC(c2ccc(Cl)cc2)c2ccc(Cl)cc2)CC2CCC1N2C (single isomer, unassigned) | ATP-binding cassette sub-family C member 8 (ABCC8, Cricetus cricetus, UniProt Q09427) | binding, radioligand displacement |  | inactive if below 75% at 10000 nM, together with: [3H]glyburide |  | Ki | inactive
C[C@@H]1NC(=O)[C@H](CCCNC(=N)N)NC(=O)[C@H](NC(=O)[C@H](Cc2ccccc2)NC(=O)CNC(=O)CNC(=O)[C@H](Cc2ccc(O)cc2)NCc2ccccc2)CC(=O)NC[C@@H](C(=O)N[C@@H](CCCNC(=N)N)C(=O)N2CCC[C@H]2C(=O)N[C@@H](CCCCN)C(N)=O)NC1=O | Oprk1 | binding |  |  | relative to: zyklophin | affinity fold decrease | 3 fold
CC(C)C[C@H](NC(=O)/C=C/c1ccc(OP(=O)(O)O)cc1)C(=O)N1CCC[C@H]1C(=O)NCC#CC(N)=O | Signal transducer and activator of transcription 3, SH2 domain (STAT3, Homo sapiens, UniProt P40763) | fluorescence polarization |  | concentration not given | relative to: Aba analogue | affinity reduction | ~2 fold
CC(=O)N[C@H]1[C@@H](OP(=O)(O)OP(=O)(O)OC/C=C(/C)CC/C=C(/C)CC/C=C(/C)CC/C=C(/C)CC/C=C(/C)CC/C=C(/C)CC/C=C(/C)CC/C=C(/C)CC/C=C(\C)CC/C=C(\C)CCC=C(C)C)O[C@H](CO)[C@@H](O)[C@@H]1O[C@H](C)C(=O)N[C@@H](C)C(=O)N[C@H](CCC(=O)N[C@@H](CCCCNC(=O)OCCCCCCNC(=S)Nc1ccc(NS(=O)(=O)c2cccc3c(N(C)C)cccc23)cc1)C(=O)N[C@H](C)C(=O)N[C@H](C)C(=O)O)C(=O)O | UDP-N-acetylglucosamine--N-acetylmuramyl-(pentapeptide) pyrophosphoryl-undecaprenol N-acetylglucosamine transferase (murG, Mycolicibacterium smegmatis, UniProt A0R016) | substrate |  | together with: UDP-GlcNAc 187.5 µM |  | Km | 39 ± 3 µM
Cc1nc(-c2ccc(Cl)cc2)nc2sc3c(=O)n(CCN4CCOCC4)cnc3c12 | ache | peripheral site binding |  | 0.24 µM |  | propidium displacement | 0%
C[C@@]12CC[C@@H]3c4cc(Cl)c(O)c(Cl)c4CC[C@H]3[C@@H]1CCC2=O | Aldo-keto reductase family 1 member C1 (AKR1C1, Homo sapiens, UniProt Q04828) | enzyme activity, inhibitor, absorbance |  | 100 µM, pH 9 |  | inhibition | 95.9%
CN(C)c1ccc(/C=C/C(=O)c2ccc(N3CCNCC3)cc2)cc1 | BACE1 | enzyme activity, inhibitor, fluorescence |  | 10 µM |  | remaining activity | 49.3%
Cc1sc2c(c1C)C(c1ccc(Cl)cc1)=NC(CC(=O)NCCCNC(=O)OC1CCC=CCCC1)c1nnc(C)n1-2 (stereo not drawn) | Bromodomain-containing protein 4 (BRD4, Homo sapiens, UniProt O60885) | degrader, immunoblot | HeLa | concentration not given |  | protein level | no effect
CC(C)CC(O)(CC(C)C)c1cn(C(=O)N2CCCC2)nn1 | Acylamino-acid-releasing enzyme (Apeh, Mus musculus, UniProt Q8R146) | inhibitor |  | 3 nM, 30 min preincubation |  | N-acetyl peptide cleavage | inhibited
CC(=O)N[C@@H](Cc1c[nH]c2ccccc12)C(=O)N[C@@H](CCC(=O)O)C(=O)N[C@@H](Cc1c[nH]cn1)C(=O)N[C@@H](CC(=O)O)C(=O)Nc1ccc2c(C)cc(=O)oc2c1 | Caspase-7 (CASP7, Homo sapiens, UniProt P55210) | substrate cleavage, substrate, fluorogenic AMC release |  | enzyme 0.25 activity units/µL |  | Vmax | 32.3 ± 4.07 RFU/min

Repeated from above:
Structure (SMILES) | target | assay | system | conditions | scale | quantity | value
COC(=O)N(C)[C@@H](Cc1ccccc1)C(=O)N[C@@H](Cc1ccccc1)C(=O)N[C@@H](Cc1c[nH]c2ccccc12)C(=O)N[C@@H](CCCNC(=N)N)C(=O)N[C@@H](CC(C)C)C(=O)N[C@@H](CCCNC(=N)N)C(=O)N[C@@H](CCCNC(=N)N)C(=O)N[C@H](C)C(=O)N[C@@H](CCCNC(=N)N)C(=O)N1CCC[C@H]1C(=O)N[C@@H](CCCCN)C(N)=O | Oprk1 | agonist | CHO cells | 10 µM | relative to: dynorphin A(1-13) amide | adenylyl cyclase activity | 98 ± 13%
C[C@@]12CC[C@@H]3c4cc(Cl)c(O)c(Cl)c4CC[C@H]3[C@@H]1CCC2=O | Aldo-keto reductase family 1 member C1 (AKR1C1, Homo sapiens, UniProt Q04828) | enzyme activity, inhibitor, absorbance |  | 100 µM, pH 9 |  | inhibition | 95.9%
CC(C)C[C@H](NC(=O)/C=C/c1ccc(OP(=O)(O)O)cc1)C(=O)N1CCC[C@H]1C(=O)NCC#CC(N)=O | Signal transducer and activator of transcription 3, SH2 domain (STAT3, Homo sapiens, UniProt P40763) | fluorescence polarization |  | concentration not given | relative to: Aba analogue | affinity reduction | ~2 fold
